# Assay results of several laboratories.
# Parts stem from different laboratories: compare values within a part only. Values joined by “and” are separate records of one study, mostly repeats; a detail may differ.

# Sample 1
# Structure (SMILES): CCN1C(=O)C(O)(C(=O)O)Oc2cc(F)ccc21 (stereo not shown)
# Organism: Arabidopsis thaliana
# Strain: Col-0
# Notes: seed germination, single repetition
tested at,hypocotyl length
50 µg/mL,1.65 cm and 1.67 cm and 1.68 cm and 1.59 cm and 1.6 cm
12.5 µg/mL,1.9 cm and 1.87 cm and 1.94 cm and 1.8 cm and 1.91 cm
100 µg/mL,1.23 cm and 1.26 cm and 1.24 cm and 1.27 cm

# Sample 2
# Structure (SMILES): C[C@@H]1CN(c2ccc(-c3cc(C(=O)NCCOCCOCCOCCOCCNC(=O)Cn4cc(-c5[nH]cc(C(=O)N[C@@H](CC(N)=O)c6ccc(F)c(Cl)c6)c5-c5ccc(Cl)cc5F)cn4)ccc3F)cc2NC(=O)c2c[nH]c(=O)cc2C(F)(F)F)C[C@H](C)N1C
# Observed: thermal unfolding
# Method: differential scanning fluorimetry
# Tested at: 5.5 µM
# Direction: higher = more unfolded
# DCAF1: DDB1- and CUL4-associated factor 1 (DCAF1, Homo sapiens, UniProt Q9Y4B6)
# Sequence of UniProt Q9Y4B6 (whole entry, looked up): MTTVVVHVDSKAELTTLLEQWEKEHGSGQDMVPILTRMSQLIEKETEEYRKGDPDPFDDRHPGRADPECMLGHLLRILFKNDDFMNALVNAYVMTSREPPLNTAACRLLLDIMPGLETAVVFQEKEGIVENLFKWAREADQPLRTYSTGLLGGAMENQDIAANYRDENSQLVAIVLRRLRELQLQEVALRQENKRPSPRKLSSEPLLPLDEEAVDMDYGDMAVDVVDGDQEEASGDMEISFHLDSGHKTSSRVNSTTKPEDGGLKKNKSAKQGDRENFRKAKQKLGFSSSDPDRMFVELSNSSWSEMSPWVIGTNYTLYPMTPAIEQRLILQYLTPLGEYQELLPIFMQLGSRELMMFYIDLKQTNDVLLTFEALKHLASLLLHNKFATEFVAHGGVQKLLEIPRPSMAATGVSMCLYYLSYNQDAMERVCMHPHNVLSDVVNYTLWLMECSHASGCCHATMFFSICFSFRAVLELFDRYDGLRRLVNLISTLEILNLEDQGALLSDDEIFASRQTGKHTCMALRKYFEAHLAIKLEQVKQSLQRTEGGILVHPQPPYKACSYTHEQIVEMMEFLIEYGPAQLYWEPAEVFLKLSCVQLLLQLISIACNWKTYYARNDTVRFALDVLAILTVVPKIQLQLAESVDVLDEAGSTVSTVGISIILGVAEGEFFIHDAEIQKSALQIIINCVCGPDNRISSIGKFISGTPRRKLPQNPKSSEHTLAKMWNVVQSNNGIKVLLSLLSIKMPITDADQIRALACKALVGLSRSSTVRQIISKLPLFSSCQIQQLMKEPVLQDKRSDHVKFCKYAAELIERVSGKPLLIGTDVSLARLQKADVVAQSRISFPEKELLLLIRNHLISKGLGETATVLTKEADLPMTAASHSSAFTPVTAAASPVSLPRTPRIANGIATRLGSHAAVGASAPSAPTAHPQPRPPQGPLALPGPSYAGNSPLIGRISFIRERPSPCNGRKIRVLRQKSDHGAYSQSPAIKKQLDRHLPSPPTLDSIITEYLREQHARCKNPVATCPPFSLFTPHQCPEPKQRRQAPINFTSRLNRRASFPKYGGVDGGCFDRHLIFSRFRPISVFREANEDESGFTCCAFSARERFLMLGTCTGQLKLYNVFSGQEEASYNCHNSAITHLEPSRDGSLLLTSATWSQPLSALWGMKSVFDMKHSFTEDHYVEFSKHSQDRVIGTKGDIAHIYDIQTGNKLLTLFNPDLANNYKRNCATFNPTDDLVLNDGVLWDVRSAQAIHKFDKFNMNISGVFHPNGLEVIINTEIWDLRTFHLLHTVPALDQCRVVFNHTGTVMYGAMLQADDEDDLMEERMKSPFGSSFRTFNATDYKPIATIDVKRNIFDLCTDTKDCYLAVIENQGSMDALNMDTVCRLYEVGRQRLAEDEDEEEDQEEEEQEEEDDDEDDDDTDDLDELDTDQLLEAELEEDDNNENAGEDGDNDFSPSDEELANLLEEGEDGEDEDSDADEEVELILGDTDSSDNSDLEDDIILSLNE
# WDR5: WD repeat-containing protein 5 (WDR5, Homo sapiens, UniProt P61964)
target,temperature,SYPRO Orange fluorescence
DCAF1,75.61 °C,48700 a.u.
DCAF1,47.4 °C,13400 a.u.
WDR5,26.8 °C,14800 a.u.
WDR5,37.6 °C,14400 a.u.
DCAF1,59.81 °C,36900 a.u.
DCAF1,44.2 °C,11900 a.u.
WDR5,51.4 °C,14400 a.u.
DCAF1,33 °C,8350 a.u.
WDR5,47 °C,14300 a.u.
DCAF1,43.4 °C,11600 a.u.
WDR5,83.41 °C,34900 a.u.

# Sample 3
# SMILES: Cc1ncsc1-c1ccc(C(CO)NC(=O)C2CC(O)CN2C(=O)C(C(C)C)n2cc(-c3ccc(COc4c(-c5c(C)c(F)cc6[nH]ncc56)c(C5CC5)cc5c(N6CC7CC6CN7)nc(OC6CCOCC6)nc45)cc3)nn2)cc1 (stereo not shown)
species,route,dose,time,body weight
"mouse, HPAC xenograft",,30 mg/kg once weekly,day 14,23.5 g
"mouse, PK-59 xenograft",,0.3 mg/kg,day 7,25.1 g and 26.1 g
"mouse, GP2d xenograft",,30 mg/kg once weekly,day 7,23.6 g
"mouse, lung LXFA sample B PDX",,30 mg/kg twice weekly,day 11,26.6 g
"mouse, A-375 xenograft",sc,30 mg/kg once daily,day 1,18 g and 18.7 g and 19.2 g and 18.4 g and 17.5 g
"mouse, PK-59 xenograft",,10 mg/kg,day 0,25.6 g and 24.2 g and 24.3 g and 23 g and 22.4 g
"mouse, PK-59 xenograft",,10 mg/kg,day 14,25.6 g and 24.4 g

# Mixed results
# PKMYT1: Membrane-associated tyrosine- and threonine-specific cdc2-inhibitory kinase (PKMYT1, Homo sapiens, UniProt Q99640)
# Sequence of UniProt Q99640 (whole entry, looked up): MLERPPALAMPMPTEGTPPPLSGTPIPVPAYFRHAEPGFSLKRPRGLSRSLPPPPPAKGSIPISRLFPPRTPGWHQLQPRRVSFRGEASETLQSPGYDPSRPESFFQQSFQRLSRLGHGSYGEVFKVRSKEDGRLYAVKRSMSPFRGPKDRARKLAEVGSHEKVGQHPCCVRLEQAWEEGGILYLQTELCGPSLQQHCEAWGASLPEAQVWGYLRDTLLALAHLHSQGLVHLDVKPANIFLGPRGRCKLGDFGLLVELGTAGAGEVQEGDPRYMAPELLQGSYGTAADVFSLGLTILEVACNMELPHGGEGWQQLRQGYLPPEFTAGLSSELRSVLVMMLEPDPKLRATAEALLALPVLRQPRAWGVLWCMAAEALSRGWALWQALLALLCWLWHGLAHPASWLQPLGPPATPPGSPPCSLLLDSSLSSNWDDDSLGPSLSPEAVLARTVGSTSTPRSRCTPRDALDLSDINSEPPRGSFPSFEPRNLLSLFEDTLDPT
SMILES,tested on,test,system,setting,measurement,result
Cc1ccc(O)c(C)c1-c1cnc2[nH]c(-c3cnc(N4CCC5(CC4)CC(CN4CCN(c6ccc(NC7CCC(=O)NC7=O)cc6F)CC4)C5)nc3)cc2c1C#N (stereo not shown),,,"female CD-1 mouse, plasma","oral, 20 mg/kg",half-life,216 min
Cc1ccc(O)c(C)c1-c1cnc2[nH]c(-c3cnc(N4CC5(CC(CN6CCN(c7ccc(NC8CCC(=O)NC8=O)cc7F)CC6)C5)C4)nc3)cc2c1C#N (stereo not shown),,,"female CD-1 mouse, plasma","oral, 10 mg/kg",Cmax,175 ng/mL
Cc1ccc(O)c(C)c1-c1cnc2[nH]c(-c3cnc(N4CCC5(CC4)CC(N4CCN(c6ccc(NC7CCC(=O)NC7=O)cc6F)CC4)CO5)nc3)cc2c1C#N (stereo not shown),PKMYT1,,MDA-MB-157,0.46 nM,degradation,24.8%
Cc1ccc(O)c(C)c1-c1cnc2[nH]c(-c3cnc(N4CCC(CN5CCN(c6cc7c(cc6F)n(C6CCC(=O)NC6=O)c(=O)n7C)CC5)CC4)nc3)cc2c1C#N (stereo not shown),PKMYT1,"degrader, automated immunoblot",HCC1569,1000.00 nM,degradation,79%

# A few entries again (sample 2):
target,temperature,SYPRO Orange fluorescence
DCAF1,33 °C,8350 a.u.
